Experimental data of several laboratories.
Compare with care: the assays were run in different laboratories. Numbers after ± are the reported error.

C[C@H](CCC(=O)NCC(=O)O)[C@H]1CC[C@H]2[C@@H]3CC[C@@H]4C[C@H](O)CC[C@]4(C)[C@H]3C[C@H](O)[C@]12C — plasma concentration (men, C/C genotype, plasma; dose not given, geometric mean): 176 ng/mL
Cc1c(C(=O)O)ccc2c3n(nc12)[C@@H]1[C@H](C3)N(CC2CC2)[C@@]2(C(=O)Nc3cc(Cl)ccc32)[C@H]1c1cccc(Cl)c1F — plasma concentration (female BALB/c nude mice, SJSA-1 xenograft, plasma; oral, 1 mg/kg twice daily, 4 h): 972 nM
Cn1cc([C@H]2C[C@H]3CSC(N)=N[C@@]3(c3ccc(F)cc3F)CO2)cn1 — plasma concentration (male 129/SVE mouse, plasma; subcutaneous, 10 mg/kg, 9 h): 79 nM
NCc1cc2c(cc1F)C(=O)N(C1CCC(=O)NC1=O)C2 (stereo not shown) — plasma concentration (cynomolgus monkey; oral, 0.3 mg/kg, 12 h): not detected
CC(C)C[C@H](NC(=O)[C@@H](Cc1c[nH]c2ccccc12)NC(=O)[C@H](Cc1ccc(O)cc1)NC(=O)[C@H](CO)NC(=O)[C@H](Cc1c[nH]c2ccccc12)NC(=O)[C@H](Cc1c[nH]cn1)NC(=O)[C@@H]1CCC(=O)N1)C(=O)N[C@@H](CCCNC(=N)N)C(=O)N1CCC[C@H]1C(=O)NCC(N)=O — plasma concentration (Chinese children, precocious puberty, plasma; intramuscular, 22.5 mg, 8640 h, month 12, mean): 0.0284 ng/mL
O=C(O)CCc1cccc(O)c1 — plasma concentration (human plasma; mean): 1770 nM
C[C@H](CCC(=O)NCC(=O)O)[C@H]1CC[C@H]2[C@@H]3[C@H](O)C[C@@H]4C[C@H](O)CC[C@]4(C)[C@H]3CC[C@]12C — plasma concentration (women, T/C genotype, plasma; dose not given, geometric mean): 331 ng/mL
O=Cc1cc2c(cc1F)C(=O)N(C1CCC(=O)NC1=O)C2 (stereo not shown) — plasma concentration (cynomolgus monkey, male; oral, 0.3 mg/kg parent drug, 1 h): 0.3 ng/mL
O=C(O)[C@H]1O[C@@H](Oc2ccccc2O)[C@H](O)[C@@H](O)[C@@H]1O — plasma concentration (human plasma; mean): 236 nM
C[C@H]1O[C@@H](O[C@H]2CC[C@@]3(C)[C@@H](CC[C@]4(C)[C@@H]3C=C[C@]35OC[C@@]6(CCC(C)(C)C[C@H]63)[C@@H](O)C[C@]54C)[C@]2(C)CO)[C@H](O)[C@@H](O[C@@H]2O[C@H](CO)[C@@H](O)[C@H](O)[C@H]2O)[C@H]1O — plasma concentration (UHPLC-MS/MS; mouse, plasma; oral, 50 mg/kg, 1 h): 14.8 ng/mL
O=C1CCC(N2Cc3cc(CO)c(F)cc3C2=O)C(=O)N1 (stereo not shown) — plasma concentration (cynomolgus monkey, male; oral, 0.3 mg/kg parent drug, 2 h): 1.02 ± 0.64 ng/mL
CCc1cc(C(=O)NC)c2nccc(N3CCc4c(cc(Cn5ccnc5)cc4-c4cn(C)nc4C(F)(F)F)C3=O)c2c1 — AUC extrapolated fraction (Sprague Dawley rat, male, plasma; oral, 50 mg/kg single dose, day 1, toxicokinetic satellite group): 0.3%
COc1ccc(C2CC(=O)c3c(O)cc(O)cc3O2)cc1O[C@@H]1O[C@H](C(=O)O)[C@@H](O)[C@H](O)[C@H]1O (stereo partly shown) — plasma concentration (human plasma; median): 599 nM
Cc1c(-c2ccc(N3CCc4cccc(C(=O)Nc5nc6ccccc6s5)c4C3)nc2C(=O)O)cnn1CC12CC3(C)CC(C)(C1)CC(OCCNCC[C@H](O)CO)(C3)C2 — plasma concentration (anaesthetized male beagle dog; iv infusion, 0.1 mg/kg/min, 15 min): 29 ng/mL
O=C(Nc1cnc2ccccc2c1)c1cc2[nH]ccc2cc1Cl — apoptotic cells (COS-7; 1 µM, 24 h, 0.1% DMSO, unit not given; baseline: vehicle control): 1.28 ± 0.89
O=C(O)Cc1ccc(O)c(O)c1 — plasma concentration (human plasma; mean): 1440 nM
COc1cccc2c1C(=O)c1c(O)c3c(c(O)c1C2=O)C[C@@](O)(C(=O)CO)C[C@@H]3O[C@H]1C[C@H](N)[C@H](O)[C@H](C)O1 — apoptosis (COS-7; 100 µM, 24 h, 0.1% DMSO, unit not given; baseline: control): 12.1 ± 1.96
O=c1c(O)c(-c2ccc(O)c(O)c2)oc2cc(O)cc(O)c12 — plasma concentration (human plasma; median, both sexes): 312 nM
CC(=O)NCc1cc2c(cc1F)C(=O)N(C1CCC(=O)NC1=O)C2 (stereo not shown) — plasma concentration (cynomolgus monkey, male; oral, 0.3 mg/kg parent drug, 4 h): 0.18 ng/mL

Excerpt of the above:
O=C(O)[C@H]1O[C@@H](Oc2ccccc2O)[C@H](O)[C@@H](O)[C@@H]1O — plasma concentration (human plasma; mean): 236 nM
COc1ccc(C2CC(=O)c3c(O)cc(O)cc3O2)cc1O[C@@H]1O[C@H](C(=O)O)[C@@H](O)[C@H](O)[C@H]1O (stereo partly shown) — plasma concentration (human plasma; median): 599 nM
